Measurements from different studies.
≈ marks a conversion by molar mass, not a printed value. Bridge positions count the residues as written; N and C are the ends. Ends that are not written are not given here. * marks the point of attachment.
Organism: Staphylococcus aureus

| Molecule | assay | system | conditions | how to read | quantity | value |
| --- | --- | --- | --- | --- | --- | --- |
| CN[C@H](CC(C)C)C(=O)N[C@H]1C(=O)N[C@@H](CC(N)=O)C(=O)N[C@H]2C(=O)N[C@H]3C(=O)N[C@H](C(=O)N[C@H](C(=O)O)c4cc(O)cc(O)c4-c4cc3ccc4O)[C@H](O)c3ccc(c(Cl)c3)Oc3cc2cc(c3O[C@@H]2O[C@H](CO)[C@@H](O)[C@H](O)[C@H]2O[C@H]2C[C@](C)(N)[C@H](O)[C@H](C)O2)Oc2ccc(cc2Cl)[C@H]1O | 99.9% killing of intracellular bacteria | RAW264.7, MRSA USA100 | 24 h |  | intracellular bactericidal concentration | > 706 µM |
| CCCCCCCCOc1c(OC)cc(NC(C)CCCNC(=O)C(N)Cc2ccccc2)c2nc(C(C)(C)C)ccc12 (stereo not drawn) | bacterial growth | MRSA ATCC 33591 |  |  | IC50 | > 20 µg/mL |
| eremomycin pyrrolidide |  | 10, female SHK mice, sepsis | intravenous, 30 min after infection, 10 days observation |  | ED50 | 0.8 mg/kg |
| CC(C)C[C@H](NC(=O)[C@H](Cc1c[nH]c2ccccc12)NC(=O)[C@H](CCCNC(=N)N)NC(=O)[C@@H](N)Cc1ccccc1)C(=O)N[C@@H](CCCNC(=N)N)C(=O)N[C@@H](CCCCN)C(=O)N[C@@H](Cc1c[nH]c2ccccc12)C(=O)N[C@@H](Cc1ccccc1)C(=O)N[C@@H](CCCNC(=N)N)C(=O)N[C@@H](CCCNC(=N)N)C(=O)O | bacterial killing, colony count | ATCC 12600 | 1 h, pH 7, 37 °C |  | EC50 | 2.2 µg/mL (≈ 1.42 µM) |
| CC[C@H](C)[C@H](NC(=O)[C@H](CCCCN)NC(=O)[C@H](CCC(=O)O)NC(=O)[C@H](CCCCN)NC(=O)[C@H](CO)NC(=O)[C@H](CCCCN)NC(=O)[C@H](CCCNC(=N)N)NC(=O)[C@H](Cc1ccccc1)NC(=O)[C@H](Cc1ccccc1)NC(=O)[C@H](CC(=O)O)NC(=O)CNC(=O)[C@H](CC(C)C)NC(=O)[C@@H](N)CC(C)C)C(=O)NCC(=O)N[C@@H](CCCCN)C(=O)N[C@@H](CCC(=O)O)C(=O)N[C@@H](Cc1ccccc1)C(=O)N[C@@H](CCCCN)C(=O)N[C@@H](CCCNC(=N)N)C(=O)N[C@H](C(=O)N[C@H](C(=O)N[C@@H](CCC(N)=O)C(=O)N[C@@H](CCCNC(=N)N)C(=O)N[C@H](C(=O)N[C@@H](CCCCN)C(=O)N[C@@H](CC(=O)O)C(=O)N[C@@H](Cc1ccccc1)C(=O)N[C@@H](CC(C)C)C(=O)N[C@@H](CCCNC(=N)N)C(=O)N[C@@H](CC(N)=O)C(=O)N[C@@H](CC(C)C)C(=O)N[C@H](C(=O)N1CCC[C@H]1C(=O)N[C@@H](CCCNC(=N)N)C(=O)N[C@H](C(=O)N[C@@H](CCC(=O)O)C(=O)N[C@@H](CO)C(=O)O)[C@@H](C)O)C(C)C)[C@@H](C)CC)C(C)C)[C@@H](C)CC |  | JE2 SAUSA300_1865 vraR transposon mutant | 12.5% TSB | relative to: wild type over mutant | MIC ratio | 2 fold |
| CC[C@H](C)[C@H](NC(=O)[C@@H](NC(=O)CN)C(C)C)C(=O)N[C@@H](Cc1ccccc1)C(=O)N[C@@H](CC(N)=O)C(=O)N[C@@H](C)C(=O)N[C@@H](CC(C)C)C(=O)N[C@@H](CCCCN)C(=O)NCC(=O)N[C@H](C(=O)N[C@@H](C)C(=O)N[C@@H](CCCCN)C(=O)N[C@H](C(=O)N[C@H](C(=O)N[C@@H](C)C(=O)N[C@@H](C)C(=O)N[C@@H](CCC(N)=O)C(=O)N[C@@H](CC(C)C)C(=O)N[C@@H](CC(C)C)C(=O)N[C@@H](CCCCN)C(=O)N[C@@H](CCCCN)C(N)=O)C(C)C)[C@@H](C)O)C(C)C | persister cells in biofilm | MRSA NCTC 12493 | together with: vancomycin 4 µg/mL |  | MBEC | 64 µM |
| vancomycin |  | 10, female SHK mice, sepsis | intravenous, 30 min after infection, 10 days observation |  | ED50 | 4.1 mg/kg |
| CCCCCCCOc1c(OC)cc(NC(C)CCCNC(=O)C(N)CCCNC(=N)N)c2nc(C(C)(C)C)ccc12 (stereo not drawn) | bacterial growth | MRSA ATCC 33591 |  |  | IC50 | > 20 µg/mL |
| CC[C@H]1OC(=O)[C@H](C)[C@@H](O[C@H]2C[C@@](C)(OC)[C@@H](O)[C@H](C)O2)[C@H](C)[C@@H](O[C@@H]2O[C@H](C)C[C@H](N(C)C)[C@H]2O)[C@](C)(OC)C[C@@H](C)C(=O)[C@H](C)[C@@H](O)[C@]1(C)O | checkerboard broth microdilution | ATCC 38591 oxacillin-resistant | together with: magainin II |  | FIC index | 1 |
| CC[C@H](C)[C@H](NC(=O)[C@@H](NC(=O)CN)C(C)C)C(=O)N[C@@H](Cc1ccccc1)C(=O)N[C@@H](CC(N)=O)C(=O)N[C@@H](C)C(=O)N[C@@H](CC(C)C)C(=O)N[C@@H](CCCCN)C(=O)NCC(=O)N[C@H](C(=O)N[C@@H](C)C(=O)N[C@@H](CCCCN)C(=O)N[C@H](C(=O)N[C@H](C(=O)N[C@@H](C)C(=O)N[C@@H](C)C(=O)N[C@@H](CCC(N)=O)C(=O)N[C@@H](CC(C)C)C(=O)N[C@@H](CC(C)C)C(=O)N[C@@H](CCCCN)C(=O)N[C@@H](CCCCN)C(=O)N[C@@H](C)C(=O)N[C@@H](CCCNC(=N)N)C(N)=O)C(C)C)[C@@H](C)O)C(C)C | persister cells in biofilm | MRSA ATCC BAA-1707 | together with: vancomycin 4 µg/mL |  | MBEC | 256 µM |
| CC[C@H](C)[C@H](NC(=O)[C@H](C)NC(=O)[C@@H](NC(=O)[C@H](C)NC(=O)CNC(=O)[C@H](CCSC)NC(=O)[C@H](CCC(N)=O)NC(=O)[C@H](CC(C)C)NC(=O)[C@H](CO)NC(=O)[C@@H](N)Cc1ccc(O)cc1)[C@@H](C)O)C(=O)N[C@@H](CCCCN)C(=O)N[C@@H](CCC(N)=O)C(=O)N[C@H](C(=O)N[C@@H](CCCCN)C(=O)N[C@@H](CCCCN)C(=O)N[C@@H](CC(C)C)C(=O)N[C@@H](Cc1ccccc1)C(=O)N[C@@H](CCCCN)C(=O)N[C@@H](CCCCN)C(=O)N[C@@H](CCCCN)C(=O)NCC(=O)NCC(N)=O)C(C)C | broth microdilution | ATCC 25923 | 24 h, 37 °C |  | MIC50 | 19 µM (≈ 46.1 µg/mL) |
| CCCCCCOc1c(OC)cc(NC(C)CCCNC(=O)C(N)Cc2ccccc2)c2nc(C(C)(C)C)ccc12 (stereo not drawn) | microbial growth | ATCC33591 MRSA | drug-resistant strain |  | IC50 | 9.71 µg/mL (≈ 17.3 µM) |
| CC(C)C[C@@H](NC(=O)[C@H](C)NC(=O)CNC(=O)[C@@H](NC=O)C(C)C)C(=O)N[C@@H](C)C(=O)N[C@@H](C(=O)N[C@H](C(=O)N[C@@H](C(=O)N[C@@H](Cc1c[nH]c2ccccc12)C(=O)N[C@H](CC(C)C)C(=O)N[C@@H](Cc1c[nH]c2ccccc12)C(=O)N[C@H](CC(C)C)C(=O)N[C@@H](Cc1c[nH]c2ccccc12)C(=O)N[C@H](CC(C)C)C(=O)N[C@@H](Cc1c[nH]c2ccccc12)C(=O)NCCO)C(C)C)C(C)C)C(C)C |  | ATCC 8530 |  |  | MBC | 2 µM |
| CCCCCOc1c(OC)cc(NC(C)CCCNC(=O)C(N)CC(C)C)c2nc(C(C)(C)C)ccc12 (stereo not drawn) | microbial killing | ATCC33591 MRSA | drug-resistant strain |  | MBC | 20 µg/mL |
| Myristoyl-SCLPKEEQIGKSTRGRKCRRKK (disulfide 2-18 (inferred)) (N-myristoyl, disulfide; Myristoyl = CCCCCCCCCCCCCC(=O)*) |  | ATCC 8530 | MBC, 2 h, pH 7.4, 37 °C, together with: LPS Escherichia coli 026:B6, peptide:LPS 1:1 w/w |  | antibacterial activity | no inhibition |
| CC[C@H](C)[C@H](NC(=O)[C@H](C)NC(=O)[C@@H](NC(=O)[C@H](C)NC(=O)CN)[C@@H](C)O)C(=O)N[C@@H](CCCCN)C(=O)N[C@@H](CCC(N)=O)C(=O)N[C@H](C(=O)N[C@@H](CCCCN)C(=O)N[C@@H](CCCCN)C(=O)N[C@@H](CC(C)C)C(=O)N[C@@H](Cc1ccccc1)C(=O)N[C@@H](CCCCN)C(=O)N[C@@H](CCCCN)C(=O)N[C@@H](CCCCN)C(=O)NCC(=O)NCC(N)=O)C(C)C |  | ATCC 25923 | 24 h, 37 °C |  | MBC | > 620 µM |
| CCCCCCOc1c(OC)cc(NC(C)CCCNC(=O)C(N)CCCCN)c2nc(C(C)(C)C)ccc12 (stereo not drawn) | bacterial growth | MRSA ATCC 33591 |  |  | IC50 | > 20 µg/mL |
| CC[C@H](C)[C@H](NC(=O)CNC(=O)[C@H](CCC(=O)O)NC(=O)[C@H](CO)NC(=O)[C@@H](NC(=O)[C@H](CCCNC(=N)N)NC(=O)[C@H](CCCCN)NC(=O)[C@H](CCCCN)NC(=O)[C@H](C)NC(=O)[C@H](CO)NC(=O)[C@H](CC(N)=O)NC(=O)[C@H](CCC(=O)O)NC(=O)[C@H](CC(C)C)NC(=O)[C@H](CCCCN)NC(=O)[C@H](CCCCN)NC(=O)[C@H](C)NC(=O)[C@@H](NC(=O)[C@H](CCCCN)NC(=O)[C@H](CO)NC(=O)[C@H](CC(C)C)NC(=O)[C@H](Cc1c[nH]c2ccccc12)NC(=O)[C@@H](N)CO)[C@@H](C)O)[C@@H](C)CC)C(=O)N[C@@H](C)C(=O)N[C@H](C(=O)N[C@@H](C)C(=O)N[C@H](C(=O)N[C@@H](CCC(N)=O)C(=O)NCC(=O)NCC(=O)N1CCC[C@H]1C(=O)N[C@@H](CCCNC(=N)N)C(=O)O)[C@@H](C)CC)[C@@H](C)CC | broth microdilution | methicillin-resistant clinical isolates, Mueller-Hinton broth | 18 h, 35 °C |  | MIC range | 16 to 64 µg/mL (≈ 4.79 to 19.2 µM) |
| CCCCCCOc1c(OC)cc(NC(C)CCCNC(=O)C(C)N)c2nc(C(C)(C)C)ccc12 (stereo not drawn) | bacterial growth | MRSA ATCC 33591 |  |  | IC50 | > 20 µg/mL |
| CC[C@H](C)[C@H](NC(=O)CN)C(=O)NCC(=O)N[C@@H](C)C(=O)N[C@H](C(=O)N[C@@H](CC(C)C)C(=O)N[C@@H](CCCCN)C(=O)N[C@H](C(=O)N[C@@H](CC(C)C)C(=O)N[C@H](C(=O)N[C@H](C(=O)NCC(=O)N[C@@H](CC(C)C)C(=O)N1CCC[C@H]1C(=O)N[C@@H](C)C(=O)N[C@@H](CC(C)C)C(=O)N[C@H](C(=O)N[C@@H](CO)C(=O)N[C@@H](Cc1c[nH]c2ccccc12)C(=O)N[C@H](C(=O)N[C@@H](CCCCN)C(=O)N[C@@H](CCCNC(=N)N)C(=O)N[C@@H](CCCCN)C(=O)N[C@@H](CCCNC(=N)N)C(=O)N[C@@H](CCC(N)=O)C(=O)N[C@@H](CCC(N)=O)C(N)=O)[C@@H](C)CC)[C@@H](C)CC)[C@@H](C)O)[C@@H](C)O)C(C)C)C(C)C |  | ATCC 8530 |  |  | MBC | 2 µM |
| CCCCOc1c(OC)cc(NC(C)CCCN)c2nc(C(C)(C)C)ccc12 (stereo not drawn) |  | MRSA ATCC 33591 |  |  | MBC | > 20 µg/mL |
| CC[C@H](C)[C@H](N)C(=O)N[C@@H](CC(C)C)C(=O)N1CCC[C@H]1C(=O)N[C@@H](Cc1c[nH]c2ccccc12)C(=O)N[C@@H](CCCCN)C(=O)N[C@@H](Cc1c[nH]c2ccccc12)C(=O)N1CCC[C@H]1C(=O)N[C@@H](Cc1c[nH]c2ccccc12)C(=O)N[C@@H](Cc1c[nH]c2ccccc12)C(=O)N1CCC[C@H]1C(=O)N[C@@H](Cc1c[nH]c2ccccc12)C(=O)N[C@@H](CCCNC(=N)N)C(=O)N[C@@H](CCCNC(=N)N)C(N)=O | broth microdilution | methicillin-resistant clinical isolates, Mueller-Hinton broth | 18 h, 35 °C |  | MIC range | 2 to 16 µg/mL (≈ 1.05 to 8.39 µM) |
| CCCCCOc1c(OC)cc(NC(C)CCCN)c2nc(C(C)(C)C)ccc12 (stereo not drawn) | microbial growth | ATCC33591 MRSA | drug-resistant strain |  | IC50 | 8.68 µg/mL (≈ 21.6 µM) |
| C[C@@H](O)[C@H]1C(=O)N2C(C(=O)O)=C(S[C@@H]3CN[C@H](C(=O)N(C)C)C3)[C@H](C)[C@H]12 | checkerboard broth microdilution | ATCC 38591 oxacillin-resistant | together with: magainin II |  | FIC index | 0.25 |

Some of these lines once more:
| Molecule | assay | system | conditions | how to read | quantity | value |
| --- | --- | --- | --- | --- | --- | --- |
| CCCCCCOc1c(OC)cc(NC(C)CCCNC(=O)C(N)Cc2ccccc2)c2nc(C(C)(C)C)ccc12 (stereo not drawn) | microbial growth | ATCC33591 MRSA | drug-resistant strain |  | IC50 | 9.71 µg/mL (≈ 17.3 µM) |
| C[C@@H](O)[C@H]1C(=O)N2C(C(=O)O)=C(S[C@@H]3CN[C@H](C(=O)N(C)C)C3)[C@H](C)[C@H]12 | checkerboard broth microdilution | ATCC 38591 oxacillin-resistant | together with: magainin II |  | FIC index | 0.25 |
